Experimental data from different studies.
Lines come from different studies, so protocols differ. ± gives the spread as reported.
Organism: Toxoplasma gondii

| Structure (SMILES) | assay | system | setting | endpoint | value |
| --- | --- | --- | --- | --- | --- |
| OCC1CC(n2cnc3c(SCc4c(F)cccc4Cl)ncnc32)C(O)C1O (stereo not shown) | parasite growth, radiolabelled uracil incorporation | RH wild type, tissue culture |  | IC50 | 13.6 ± 0.2 µM |
| Cc1cccc(Cn2cc(COc3cc(-n4nc(C(C)(C)C)oc4=O)c(Cl)cc3Cl)nn2)c1 | intracellular growth | HFF, Δppo PPO-complemented | 96 h | IC50 | 0.9 ± 0.5 µM |
| COc1cccc(Oc2cccc(OCCSC#N)c2)c1 | growth | tachyzoites |  | IC50 | 4 µM |
| COc1ccc(CSc2ncnc3c2ncn3C2CC(CO)C(O)C2O)cc1 (stereo not shown) | parasite growth, radiolabelled uracil incorporation | RH wild type, tissue culture |  | IC50 | 12.1 ± 0.3 µM |
| CCc1nc(N)nc(N)c1-c1ccc(Cl)cc1 |  | ME49, Swiss-Webster mice | intraperitoneal, 5.0 mg/kg/day, 10 days dosing, 40 days observed | survival | 90% |
| Cc1ccc(S(=O)(=O)OCCOc2cccnc2)cc1 |  | tachyzoites |  | IC50 | > 10 µM |
| CC(=O)c1ccc(Cn2cc(COc3cc(-n4nc(C(C)(C)C)oc4=O)c(Cl)cc3Cl)nn2)cc1 | intracellular growth | HFF, Δppo PPO-complemented | 96 h | IC50 | 1.6 ± 0.5 µM |
| Cc1ccc(CSc2ncnc3c2ncn3C2CC(CO)C(O)C2O)c(C)c1C (stereo not shown) | parasite growth, radiolabelled uracil incorporation | RH wild type, tissue culture |  | IC50 | 16.1 ± 1.2 µM |
| N#CSCCOc1cccc(Oc2ccncc2)c1 |  | tachyzoites |  | IC50 | > 10 µM |
| CC(C)(C)c1nn(-c2cc(OCc3cn(Cc4cccc(C(F)(F)F)c4)nn3)c(Cl)cc2Cl)c(=O)o1 | intracellular growth | HFF, Δppo PPO-complemented | 96 h | IC50 | 1 ± 0.4 µM |
| COC(=O)c1ccc(CSc2ncnc3c2ncn3C2CC(CO)C(O)C2O)cc1 (stereo not shown) | parasite growth, radiolabelled uracil incorporation | RH wild type, tissue culture |  | IC50 | 12.8 ± 0.3 µM |
| CC(C)(C)c1nn(-c2cc(OCc3cn(Cc4cccc(Br)c4)nn3)c(Cl)cc2Cl)c(=O)o1 | intracellular growth | HFF, Δppo PPO-complemented | 96 h | IC50 | 1.5 ± 0.5 µM |
| [N-]=[N+]=NCCOc1ccc(Oc2ccccc2)cc1 |  | tachyzoites |  | IC50 | > 10 µM |
